{"data": "Measurements from different studies", "note": "Parts stem from different laboratories: compare values within a part only. Positions count from the first letter of the parent shown."}
{"data": "Sample 1", "target": "Histone acetyltransferase KAT6A, both winged helices, GST fusion (KAT6A, Homo sapiens, UniProt Q92794, residues 1-181)", "method": "protein binding microarray", "molecule type": "double-stranded DNA, one strand shown", "medium": "in vitro", "tested at": "not given", "notes": "8-mer, flanks averaged, mean of 2 arrays, mostly near background", "baseline": "not given", "reading": "higher = stronger binding", "Target sequence (chain)": "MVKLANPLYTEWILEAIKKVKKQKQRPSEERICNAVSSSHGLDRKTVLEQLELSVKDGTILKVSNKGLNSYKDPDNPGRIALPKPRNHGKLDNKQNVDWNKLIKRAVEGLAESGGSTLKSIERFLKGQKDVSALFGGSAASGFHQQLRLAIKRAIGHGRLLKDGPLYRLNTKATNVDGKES"}
{"Sequence": "CAGGGCCC", "E-score": -0.102}
{"Sequence": "CGGTTTCC", "E-score": 0.231}
{"Sequence": "GCCGGCGA", "E-score": 0.289}
{"Sequence": "AACCGGCA", "E-score": 0.212}
{"Sequence": "CGCTAATC", "E-score": 0.153}
{"Sequence": "GTTATCTA", "E-score": -0.0134}
{"Sequence": "GATTCTAA", "E-score": -0.184}
{"Sequence": "ACCTCCTA", "E-score": -0.135}
{"Sequence": "CTTGGGTA", "E-score": -0.101}
{"Sequence": "TCCTTAAA", "E-score": -0.192}
{"Sequence": "ACGGATAC", "E-score": 0.2}
{"Sequence": "ATCAGCTG", "E-score": -0.0438}
{"Sequence": "GGGTGATA", "E-score": 0.0526}
{"Sequence": "CCAGTTGA", "E-score": -0.0422}
{"Sequence": "AATAAGGT", "E-score": -0.0319}
{"Sequence": "AGGAGCAC", "E-score": -0.104}
{"Sequence": "GTAGGCTA", "E-score": -0.147}
{"Sequence": "AGAAGGTA", "E-score": -0.192}
{"Sequence": "CTAACCCA", "E-score": -0.171}
{"Sequence": "CCTCGCCG", "E-score": 0.148}
{"Sequence": "ACCAAGGT", "E-score": -0.153}
{"Sequence": "CAGGCTTA", "E-score": -0.22}
{"Sequence": "CATTACTC", "E-score": -0.133}
{"Sequence": "TAGAAAGA", "E-score": -0.0716}
{"Sequence": "CAATGGCA", "E-score": -0.0491}
{"data": "Sample 2", "target": "CCNB1, cyclin fold, Cln2 fusion (human)", "method": "yeast growth competition, sequencing", "medium": "yeast", "notes": "weak parent motif", "baseline": "not given", "reading": "higher = stronger binding", "starting sequence": "CDKN1B docking peptide (human); PSACRNLFGPVDH"}
{"Change": "PSAARNLFGPVDH [C4A]", "normalised enrichment score": 0.864}
{"Change": "PSACANLFGPVDH [R5A]", "normalised enrichment score": -0.24}
{"Change": "PSACRNLFGPVDK [H13K]", "normalised enrichment score": 0.8}
{"Change": "PSACRNLFGTVDH [P10T]", "normalised enrichment score": 0.756}
{"Change": "PLACRNLFGPVDH [S2L]", "normalised enrichment score": 0.428}
{"Change": "PSACRNLAGPVDH [F8A]", "normalised enrichment score": -0.0833}
{"Change": "PSAPRNLFGPVDH [C4P]", "normalised enrichment score": 0.441}
{"Change": "PSACCNLFGPVDH [R5C]", "normalised enrichment score": -0.149}
{"Change": "PSACRNLFWPVDH [G9W]", "normalised enrichment score": 0.321}
{"Change": "PSACRNLFEPVDH [G9E]", "normalised enrichment score": 0.59}
{"Change": "PSACRNLFGPVDP [H13P]", "normalised enrichment score": 0.787}
{"Change": "PSACRNLFGPRDH [V11R]", "normalised enrichment score": 0.136}
{"Change": "PWACRNLFGPVDH [S2W]", "normalised enrichment score": 0.153}
{"Change": "PSTCRNLFGPVDH [A3T]", "normalised enrichment score": 0.15}
{"Change": "PSACRNLFGPVIH [D12I]", "normalised enrichment score": 0.503}
{"Change": "PSACRNYFGPVDH [L7Y]", "normalised enrichment score": 0.263}
{"Change": "PSARRNLFGPVDH [C4R]", "normalised enrichment score": 0.37}
{"Change": "PSACRNLFGPQDH [V11Q]", "normalised enrichment score": 0.397}
{"Change": "PSACRNLFGPVDM [H13M]", "normalised enrichment score": -0.023}
{"Change": "PSACRNLFGPVPH [D12P]", "normalised enrichment score": 0.444}
{"Change": "PSAWRNLFGPVDH [C4W]", "normalised enrichment score": 0.921}
{"Change": "PSACENLFGPVDH [R5E]", "normalised enrichment score": 0.646}
{"Change": "PSACRNLFCPVDH [G9C]", "normalised enrichment score": 0.42}
{"Change": "PSWCRNLFGPVDH [A3W]", "normalised enrichment score": 0.539}
{"Change": "PSQCRNLFGPVDH [A3Q]", "normalised enrichment score": 0.452}
{"data": "Sample 3", "target": "Interferon regulatory factor 7, full length, phosphomimetic (IRF7, Homo sapiens, UniProt Q92985, residues 1-503, S471D/S472D/S475D/S476D/S477D/S483D/S484D/S487D)", "method": "protein-binding microarray", "molecule type": "double-stranded DNA, one strand shown", "medium": "in vitro", "tested at": "2200 nM top", "notes": "60-bp whole probe", "together with": "salmon DNA 0.4 mg/ml", "baseline": "random background probes", "reading": "higher = stronger binding", "all sequences stand within": "GCCTAGCAC … GTCTTGATTCGCTTGACGCTGCTG", "chain of UniProt Q92985 (whole entry, unmodified, looked up)": "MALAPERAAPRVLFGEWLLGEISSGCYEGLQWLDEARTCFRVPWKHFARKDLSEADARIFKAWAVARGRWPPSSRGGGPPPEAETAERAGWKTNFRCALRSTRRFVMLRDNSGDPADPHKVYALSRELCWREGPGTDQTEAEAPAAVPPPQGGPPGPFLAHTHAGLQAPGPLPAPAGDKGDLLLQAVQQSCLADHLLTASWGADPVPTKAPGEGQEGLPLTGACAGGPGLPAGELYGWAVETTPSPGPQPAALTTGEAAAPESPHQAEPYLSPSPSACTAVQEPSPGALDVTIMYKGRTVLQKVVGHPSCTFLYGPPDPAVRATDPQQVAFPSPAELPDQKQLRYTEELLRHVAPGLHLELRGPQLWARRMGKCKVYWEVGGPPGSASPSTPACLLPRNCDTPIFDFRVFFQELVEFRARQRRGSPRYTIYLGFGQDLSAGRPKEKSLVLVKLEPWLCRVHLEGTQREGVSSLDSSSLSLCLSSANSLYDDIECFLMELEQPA"}
{"Sequence": "GACGGTTTGGGTTCCGGGACGTGCTAG", "fitted relative affinity [z-score]": 0.77}
{"Sequence": "GTGCCTTTTTTTTTTTTTCTGTGCTAG", "fitted relative affinity [z-score]": 1.53}
{"Sequence": "TCCCCTCCGGGACCCGCCTCGTGCTAG", "fitted relative affinity [z-score]": -0.0931}
{"Sequence": "GACGGACTGCTACTGCTGGCGTGCTAG", "fitted relative affinity [z-score]": -0.469}
{"Sequence": "TCACTTCCCCTCTCTTTCACTGTGCTA", "fitted relative affinity [z-score]": 3.15}
{"Sequence": "TCACTCCTCCAGGTTCTCACTGTGCTA", "fitted relative affinity [z-score]": 1.84}
{"Sequence": "TCTCTTTTTGCTTTCTTTATGTGCTAG", "fitted relative affinity [z-score]": 4.06}
{"Sequence": "GACGGTTTCGGACTGGGGAAGTGCTAG", "fitted relative affinity [z-score]": 3.81}
{"Sequence": "TCAGTTTTTATTTTCTGACTGTGCTAG", "fitted relative affinity [z-score]": 3.04}
{"Sequence": "TTCACTTTCTTTAACATATTGTGCTAG", "fitted relative affinity [z-score]": 2.1}
{"Sequence": "TTAGGACTGCTTATTCTTTAGTGCTAG", "fitted relative affinity [z-score]": 0.055}
{"Sequence": "TTAGGACTGGGTCTCCGTTAGTGCTAG", "fitted relative affinity [z-score]": -0.59}
{"Sequence": "CCAACTCTGTTTTCGCTTTCTGTGCTA", "fitted relative affinity [z-score]": 8.7}
{"Sequence": "GCCGGACTGGACTTTCGGGACGTGCTA", "fitted relative affinity [z-score]": 2}
{"Sequence": "TTAGGACTGGACTTTCGGTGAGTGCTA", "fitted relative affinity [z-score]": 0.774}
{"Sequence": "GACGATCTCAAACTGGAGACGTGCTAG", "fitted relative affinity [z-score]": -0.123}
{"Sequence": "ATAGATATCAGTATCGATTAGTGCTAG", "fitted relative affinity [z-score]": 0.47}
{"Sequence": "TTAGATCTCAGTTGCGATTAGTGCTAG", "fitted relative affinity [z-score]": 0.698}
{"data": "Sample 4", "target": "Ras GTPase-activating protein-binding protein 1, RRM domain (G3BP1, Homo sapiens, UniProt Q13283)", "method": "RNA Bind-n-Seq", "molecule type": "RNA", "medium": "in vitro", "tested at": "1 µM", "notes": "whole 134-nt RNA, ends assumed", "together with": "150 mM KCl", "baseline": "input library", "reading": "higher = stronger binding", "all sequences stand within": "GGGAGUUCUACAGUCCGACGAUC … UGGAAUUCUCGGGUGUCAAGG", "chain of UniProt Q13283 (whole entry, looked up)": "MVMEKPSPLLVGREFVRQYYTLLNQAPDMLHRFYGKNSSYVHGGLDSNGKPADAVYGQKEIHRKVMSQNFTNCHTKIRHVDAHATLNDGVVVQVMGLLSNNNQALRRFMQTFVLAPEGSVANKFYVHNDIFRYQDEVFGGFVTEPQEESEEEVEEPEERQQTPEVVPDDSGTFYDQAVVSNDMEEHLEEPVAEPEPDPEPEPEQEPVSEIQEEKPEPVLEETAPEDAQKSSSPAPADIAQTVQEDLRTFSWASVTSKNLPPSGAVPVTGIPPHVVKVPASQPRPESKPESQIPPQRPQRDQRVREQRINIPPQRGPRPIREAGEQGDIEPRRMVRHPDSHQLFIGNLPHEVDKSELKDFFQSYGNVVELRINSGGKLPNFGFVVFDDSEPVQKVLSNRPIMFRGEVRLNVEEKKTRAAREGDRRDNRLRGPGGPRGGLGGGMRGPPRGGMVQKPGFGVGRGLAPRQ"}
{"Sequence": "AGUCCUGUGCUACACAUCGUAUGUACCGAAUCGGCCCCCGGCCCCCGGCCCCCGGGGAAAGUAUUAUGUUACGCCGUUCGGAUCUGCACU", "log2 enrichment": -0.658}
{"Sequence": "GCAGGAAGUAAAAACAAUUGGAAAUGCUUCGGAUAGUGGCAGGGGUGGGGGUUGCUAAGGAAAGGGUGGGAUGGGAGUGGGUAAAGAGUU", "log2 enrichment": 1.01}
{"Sequence": "UUCGACGGCGCCGGGCGAGUGGCUGUUGAGCGGCGCCGCGGGAGUUCCGCAGGUUUCCCGUGUUCGCAGCGGAGCCGGAGGCCAGCUGAA", "log2 enrichment": -1.03}
{"Sequence": "UUCCUCAAGUCCUGUGCUACACAUCGUAUGUACCGAAUCGGAGGGAGGAGGAAAGUAUUAUGUUACGCCGUUCGGAUCUGCACUUCCAGC", "log2 enrichment": -0.259}
{"Sequence": "AGGCCCUGGUGGCAUGCGGGGAGGAAGAGGUGGCCUCAUGGAUCGUGGUGGUCCCGGUGGAAUGUUCAGAGGUGGCCGUGGUGGAGACAG", "log2 enrichment": 1.12}
{"Sequence": "UGGCCCUGGUGGCAUGCGGGGAGGAAGAGGUGGCCUCAUGGAUCGUGGUGGUCCCGGUGGAAUGUUCAGAGGUGGCCGUGGUGGAGUCAG", "log2 enrichment": 1.62}
{"Sequence": "GUCCUGUGCUACACAUCGUAUGUACCGAAUCGGGGCCCCCGGGCCCCCGGGCCCCCGGGAAAGUAUUAUGUUACGCCGUUCGGAUCUGCA", "log2 enrichment": -0.584}
{"Sequence": "GCAGGAAGUAAAAACAAAUGGAAAUGCUUCGGUUAGUGGCAGGGGUGGGGGUUGCUAAGGAAAGGGUGGGAUGGGAGUGGGUAAAGAGUU", "log2 enrichment": 1.08}
{"Sequence": "GCAGGAAGUAAAAACAAAUGGAAAUGCUUCGGAUAGUGGCAGGGGUGGGGGUUGCUAAGGAAAGGGUGGGAUGGGAGUGGGUAAAGGGUU", "log2 enrichment": 0.807}
{"Sequence": "UCCUGUGCUACACAUCGUAUGUACCGAAUCGGGAAAAAAGGAAAAAAGGGGAAAAAAGGGAAAGUAUUAUGUUACGCCGUUCGGAUCUGC", "log2 enrichment": 0.0302}
{"data": "Sample 5", "target": "PABPC1L2, full length, GST fusion (mouse, UniProt A0ABA7IW68)", "method": "RNAcompete", "molecule type": "RNA", "medium": "in vitro", "tested at": "20 nM", "notes": "7-mer, probes averaged, single round", "baseline": "mean of 7-mers", "reading": "higher = stronger binding", "Construct (chain)": "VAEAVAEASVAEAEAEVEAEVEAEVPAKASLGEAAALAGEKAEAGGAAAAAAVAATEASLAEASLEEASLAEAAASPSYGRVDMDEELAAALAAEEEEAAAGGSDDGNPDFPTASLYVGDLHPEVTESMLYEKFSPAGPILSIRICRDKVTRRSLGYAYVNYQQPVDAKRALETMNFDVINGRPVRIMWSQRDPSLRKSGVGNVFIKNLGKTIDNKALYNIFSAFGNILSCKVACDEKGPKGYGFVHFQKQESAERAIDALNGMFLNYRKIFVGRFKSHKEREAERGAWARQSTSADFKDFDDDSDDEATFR"}
{"Sequence": "GUUAAAG", "7-mer Z-score": 0.269}
{"Sequence": "UGUCUGA", "7-mer Z-score": -0.0391}
{"Sequence": "CGGAUAU", "7-mer Z-score": -0.142}
{"Sequence": "ACAUAUU", "7-mer Z-score": 0.0261}
{"Sequence": "UAGGCAA", "7-mer Z-score": 0.231}
{"Sequence": "GGGCGGC", "7-mer Z-score": 0.329}
{"Sequence": "CGCAUCC", "7-mer Z-score": -0.244}
{"Sequence": "UGUCGGC", "7-mer Z-score": -0.133}
{"Sequence": "UAGUGAC", "7-mer Z-score": -0.222}
{"Sequence": "CGUAUAA", "7-mer Z-score": 0.309}
{"Sequence": "GAGCGUC", "7-mer Z-score": -0.249}
{"Sequence": "CACACGU", "7-mer Z-score": -0.32}
{"Sequence": "CAGACCC", "7-mer Z-score": -0.0718}
{"Sequence": "AGGGUGU", "7-mer Z-score": 0.129}
{"Sequence": "AAAGAGG", "7-mer Z-score": 2.22}
{"Sequence": "UAUCGGG", "7-mer Z-score": 0.137}
{"Sequence": "UGUAGGU", "7-mer Z-score": -0.113}
{"Sequence": "GUAUGUC", "7-mer Z-score": -0.22}
{"Sequence": "GGGCUAU", "7-mer Z-score": 0.115}
{"Sequence": "UAUAGUA", "7-mer Z-score": -0.184}
{"Sequence": "AUGAACC", "7-mer Z-score": 0.0787}
{"Sequence": "GGCUCUG", "7-mer Z-score": -0.00108}
{"Sequence": "UAAACCU", "7-mer Z-score": 0.178}
{"Sequence": "CUCGUCU", "7-mer Z-score": -0.521}
{"Sequence": "UGAGCUC", "7-mer Z-score": -0.374}
{"note": "For quick reference, copied from above (sample 1):"}
{"Sequence": "ACGGATAC", "E-score": 0.2}
{"Sequence": "ATCAGCTG", "E-score": -0.0438}
{"Sequence": "GGGTGATA", "E-score": 0.0526}
{"Sequence": "CCAGTTGA", "E-score": -0.0422}
{"Sequence": "AATAAGGT", "E-score": -0.0319}
{"Sequence": "AGGAGCAC", "E-score": -0.104}
{"Sequence": "GTAGGCTA", "E-score": -0.147}
{"Sequence": "AGAAGGTA", "E-score": -0.192}
